Published values pooled from the literature.
Each numbered part is a random draw from the data of one study; scales do not carry over between parts. Substitutions count along the parent as printed.

Set 1
Target: RNA binding protein fox-1 homolog 2, RRM domain, GST-SBP tag (RBFOX2, Homo sapiens, UniProt O43251-10, residues 100-194)
Method: RNA Bind-n-Seq
Molecule type: RNA
Sample: in vitro
Tested at: 365 nM
Notes: natural RNA segment, single round, ends assumed
Relative to: no-protein control
Direction: higher = stronger binding
Shared flanks, not repeated: GGGAGUUCUACAGUCCGACGAUC … UGGAAUUCUCGGGUGCCAA
Target sequence (chain): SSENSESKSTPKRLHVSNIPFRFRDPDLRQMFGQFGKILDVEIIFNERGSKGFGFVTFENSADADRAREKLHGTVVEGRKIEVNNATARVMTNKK
Strand	RBNS enrichment (R)
GUACAUUUGUUGUUGCUUGUAAAUUAACUACUCGUAGUAAUAUUUCACUUUUACAUUAUAAUAAAAAGUUUGGAAAAGUUACUUUUCUUGUUUUAUUUUUACAUCAUAUU	0.743
CAAAUAAACACAUACUCAUUGUGAACUCUCUGUUGUUGUCCAUUUCAAAUCUGGAUUGUUCUGUGAAGGGUCUCACUUUUGUAUCAUGAGACAAGAGUGCCUAUGAGAAA	0.506
UGGAUAUUUAUCUGCAUAUGCAAAUUAAAAUAAUUAGAAACUUUCUACCUAGUACGUCAUGUUGUACUAGGUACAUGAUGCUGGUCAGCCAUCCUUAAUCCAAAAUUUUG	0.383
AAUAUGCCCAAGAUUGCAAAUGCAUCCAGUCAGUAAUACCACUGUCUGUAUGUGGAAGACAUGUUCCCAUGGAUCAUAUGUGAAGAUGUCAAUAAGCUUGCAUUAAGCCA	0.304
AUGGAUAUAGGCUAUUCUCUGGGAUGAGUGUCAUUUCAAUGCUUUAUAAAUCCAUGAAGCUGCUUGUCUCAUAAAGUAGAACUGAUACAAAUUUUGGUUGGAUAUAUAGA	0.905
UCCACCGCCCUGGGAGGCAGCAGCUUCUUCGAGAAGGAUGGAGCCCCCUUCUGCCCCGAGUGCUACUUUGAGCGCUUCUCGCCAAGAUGUGGCUUCUGCAACCAGCCCAU	0.376
AUUUCCCAUUCCAAAAACUGGCUAGACAAAGGACAAGGAACGGUCAAGAACAGCUCUCCAUGGCUUUGCCUUGACUGUUGUUCCUCCCUUUGCCUUUCCCGCUCCCACUA	0.241
CGUGCCUGCACACCGUUCUCUCCACCCUGCCUCCUUCCCACAGCAGAAGCAGGGCUCCACCCAGGCCUUCCCUUGGAGUCGGUGCAUCCAUGGGCUGCUAGACUCUUGCG	0.396
GCAGGAGGACUCUUGCAGGGUUUUGUAAGCAGCGAUCUAGUUUCAUUAAAAAAAAAAGCUACACAGUAAACAGUCAGCUUCUUGUGUCUGUCUGCCAGAAACCCUGACUG	0.487
CCAAAGGACCCCUCGACUGGCCACAGCCCAGCCCAGCCUGACGUGGAUGUGGCUGCCCAGGAAAAGACUUAACUGUGAAAAAGUACUGAGAACCCACCUGACCCAGGCUU	0.612
UUUGUAACAUAUUAAUUAUAAAUAUUGUAUUUAUCUUUGAAAUUUUGUACAUUGCUUUCCCUGCCUUCUUUUUUCACGUCUGUUUUGGUGUUUGAUCCCUGCCCAGUGUU	1.73

Set 2
Target: Ras GTPase-activating protein-binding protein 1, full length (G3BP1, Homo sapiens, UniProt Q13283)
UniProt Q13283, sequence (whole entry, looked up): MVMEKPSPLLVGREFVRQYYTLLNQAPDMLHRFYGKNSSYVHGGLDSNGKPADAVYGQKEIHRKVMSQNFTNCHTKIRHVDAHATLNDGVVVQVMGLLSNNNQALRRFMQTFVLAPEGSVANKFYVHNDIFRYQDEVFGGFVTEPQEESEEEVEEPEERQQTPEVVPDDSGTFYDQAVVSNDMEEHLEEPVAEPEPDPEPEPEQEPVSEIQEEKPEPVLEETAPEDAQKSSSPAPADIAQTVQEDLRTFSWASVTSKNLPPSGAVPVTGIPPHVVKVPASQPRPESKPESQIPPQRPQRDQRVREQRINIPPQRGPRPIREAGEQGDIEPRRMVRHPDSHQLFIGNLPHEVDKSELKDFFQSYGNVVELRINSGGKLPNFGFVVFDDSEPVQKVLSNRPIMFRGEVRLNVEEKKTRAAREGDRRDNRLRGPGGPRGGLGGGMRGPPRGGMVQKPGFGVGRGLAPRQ
Method: RNA Bind-n-Seq
Molecule type: RNA
Sample: in vitro
Tested at: 200 nM
Notes: whole 134-nt RNA, ends assumed
Together with: 150 mM LiCl
Relative to: input library
Direction: higher = stronger binding
All molecules: 7-deaza-guanosine replaces G
Shared flanks, not repeated: GGGAGUUCUACAGUCCGACGAUC … UGGAAUUCUCGGGUGUCAAGG
Strand	log2 enrichment
CACAGACAACACGCACCCACACAGACACAGAGGGAAGGGGUUGGAAUGGGGACAGGGUGCACAGCAGGGCGGGGUAGGACCCCAGCCCCU	-1.08
AAGUCCUGUGCUACACAUCGUAUGUACCGAAUCGGGUGGGUUUUUUUGGGUUUGGGAAAGUAUUAUGUUACGCCGUUCGGAUCUGCACUU	-0.617
GUUUGAUGAUCGUGGACGGAGUGAUUACGAUGGCAUUGGCAGCCGUGGUGACAGAAGUGGCUUUGGCAAAUUUGAACGUGGUGGAAACAG	1.31
UCAAGUCCUGUGCUACACAUCGUAUGUACCGAAUCGGGCCGGGCCGGGGCCGGGGAAAGUAUUAUGUUACGCCGUUCGGAUCUGCACUUC	-0.168
AGUCCUGUGCUACACAUCGUAUGUACCGAAUCGGAAAAGGGGAAAAGGGGAAAAGGGAAAGUAUUAUGUUACGCCGUUCGGAUCUGCACU	-0.564
UUUUUUGUAGUAGGGAGAUCCUUGAUCAUCAGGAUGGUAAUGUAGAAGAUGAUGGGCUUACAGGACUCCUAAGGCUUGCAACAAGUGUUG	0.0996
GUCCUGUGCUACACAUCGUAUGUACCGAAUCGGGGAAAGGGGAAAAAAAGGGGAGGGGAAAGUAUUAUGUUACGCCGUUCGGAUCUGCAC	0.56
UGGGAGGUGGAUUUUGUUCAUUUUUUUAGCUCAUUUCCAGGGGUGGGAAUUUUUUUUUAAUAUGUGUCAUGAAUAAAGUUGUUUUUGAAA	0.108
UCCUGUGCUACACAUCGUAUGUACCGAAUCGGGAAAAAGGGGAAAAAGGGGAAAAAGGGGAAAGUAUUAUGUUACGCCGUUCGGAUCUGC	-0.105
GCAGGAAGUAAAGACAAAUGGAAAUGCUUCGGAUAGUGGCAGGGGUGGGGGUUGCUAAGGAAAGGGUGGGAUGGGAGUGGGUAAAGAGUU	-0.35

Set 3
Target: CCND2, cyclin fold, Cln2 fusion (human)
Method: yeast growth competition, sequencing
Sample: yeast
Notes: weak parent motif
Relative to: not given
Direction: higher = stronger binding
Parent: ANKRD17 docking peptide (human); PSVRRQLFVTVVK
Change	normalised enrichment score
PSVRAQLFVTVVK [R5A]	0.944
PSVRRQLLVTVVK [F8L]	-0.22
PSVRRQLAVTVVK [F8A]	0.425
PAVRRQLFVTVVK [S2A]	0.303
PSVRRQLFVAVVK [T10A]	0.938
PSVRRQLFATVVK [V9A]	0.145
PSVRRQLFVTVAK [V12A]	0.262

Mixed results
Substance	target	assay	system	setting	scale	quantity	value
PhoQ, residues 284 288 289 292 302 303 SLSVQF	PhoP, residues 12 14 15 18 19 SEGLL (Escherichia coli, UniProt P23836)	Sort-seq, refers to: YFP reporter	E. coli	PhoQ-PhoP variant library, together with: 10 µM Mg2+	relative to: high Mg2+ state, higher = stronger signaling	fold induction	21.2

Some of these lines once more (set 2):
Strand	log2 enrichment
GUCCUGUGCUACACAUCGUAUGUACCGAAUCGGGGAAAGGGGAAAAAAAGGGGAGGGGAAAGUAUUAUGUUACGCCGUUCGGAUCUGCAC	0.56
UUUUUUGUAGUAGGGAGAUCCUUGAUCAUCAGGAUGGUAAUGUAGAAGAUGAUGGGCUUACAGGACUCCUAAGGCUUGCAACAAGUGUUG	0.0996
AAGUCCUGUGCUACACAUCGUAUGUACCGAAUCGGGUGGGUUUUUUUGGGUUUGGGAAAGUAUUAUGUUACGCCGUUCGGAUCUGCACUU	-0.617
AGUCCUGUGCUACACAUCGUAUGUACCGAAUCGGAAAAGGGGAAAAGGGGAAAAGGGAAAGUAUUAUGUUACGCCGUUCGGAUCUGCACU	-0.564
